Experimental data of several laboratories.
Compare with care: the assays were run in different laboratories. ± marks the error that the study gave. Values after ≈ are worked out from the molar mass of the structure shown.
Cell line: HeLa

SMILES | assay | setting | how to read | quantity | result
Clc1ccc(C=[N+]2N=C(Nc3ccccc3)[S][Pd-]2([Cl])[Cl])s1 | altered cell morphology, microscopy | confluent cultures |  | minimal cytotoxic concentration | > 100 µM
CC(C)CCOc1cc(C[n+]2cn(CCC(C)C)c3ccccc32)c(OCCC(C)C)c2ccccc12 | qRT-PCR, item: PCNA mRNA | 5 µM |  | inhibition | 50%
C=C1C(=O)OC2C=C(C)CCC=C(C(=O)OC(C)C(C)(O)C(=O)OC3C(OC(C)=O)C(C(=O)OC)=CCCC(C)=CC4OC(=O)C(=C)C43)CC(OC(=O)C(C)=CC)C12 (centres unmarked) | PI staining flow cytometry | 3 µM, 48 h |  | G2/M phase cells | 38.1%
CC1=[N+]2N=C(c3ccccc3)[O][Pd-2]2([Cl])[O+]=C2Oc3ccccc3C=C21 (centres unmarked) | flow cytometry | IC50, 24 h |  | S phase cells | 35.4%
COc1cc2c(=O)c(-c3ccc4c(c3)OCO4)coc2c2c1OC(C)(C)C=C2 | annexin V/PI flow cytometry | 5 µM, 48 h |  | apoptotic cells | 36.3%
CC[C@H](C)[C@H](NC(=O)[C@H](Cc1c[nH]cn1)NC(=O)[C@H](Cc1ccccc1)NC(=O)[C@@H](NC(=O)[C@H](C)NC(=O)[C@H](CC(N)=O)NC(=O)[C@H](Cc1c[nH]c2ccccc12)NC(=O)[C@@H](NC(=O)CNC(=O)CNC(=O)[C@H](CCCNC(=N)N)NC(=O)[C@H](CCCNC(=N)N)NC(=O)[C@H](CCCNC(=N)N)NC(=O)[C@H](CCC(N)=O)NC(=O)[C@H](CCCNC(=N)N)NC(=O)[C@H](CCCNC(=N)N)NC(=O)[C@H](CCCCN)NC(=O)[C@H](CCCCN)NC(=O)[C@H](CCCNC(=N)N)NC(=O)CNC(=O)[C@@H](N)Cc1ccc(O)cc1)C(C)C)[C@@H](C)O)C(=O)N[C@@H](Cc1c[nH]c2ccccc12)C(=O)N[C@@H](Cc1c[nH]cn1)C(=O)N[C@@H](CC(=O)O)C(N)=O | autophagy induction, item: p62, LC3 lipidation |  | baseline: Tat-Beclin 1, higher = more potent | relative potency | ~2 fold
COc1ccc(-c2cc(COC3c4cc5c(cc4C(c4cc(OC)c(OC)c(OC)c4)C4C(=O)OCC34)OCO5)on2)cc1 (centres unmarked) | cell growth or viability, SRB | 48 h |  | GI50 | 320 nM
CC1(C)CC2C3=CCC4C5(C)CCC(O)C(C)(CO)C5CCC4(C)C3(C)CC(O)C2(CO)C(O)C1O (centres unmarked) | CCK-8 | up to 80 µM |  | growth inhibition | inactive
NC(=S)N/N=C/c1cc(Cl)ccc1O | Western blot, item: phospho-ERK1/2 | 0.1 µM, 24 h |  | reduction in ERK1/2 phosphorylation | ~10%
CC(C)(C)c1cc2c(O)c(c1)Cc1cc(C(C)(C)C)cc(c1OCC(=O)NCc1ccccn1)Cc1cc(C(C)(C)C)cc(c1O)Cc1cc(C(C)(C)C)cc(c1OCC(=O)NCc1ccccn1)COC2 | cell growth or viability, MTT | 15 µM, 72 h |  | inhibition | 50%
S=C(N/N=C/c1ccc(-c2ccccc2)s1)Nc1ccccc1 | altered cell morphology, microscopy | confluent cultures |  | cytotoxic concentration | ≥ 20 µM
O=C(O)c1ccccc1-c1c2ccc(=O)c(Br)c-2oc2c(Br)c(O)ccc12 | HPLC-MS/MS | 50 µM, 24 h |  | mRNA m6A level | increased
S=c1n(-c2ccccc2)c2c3ccccc3nc3[n+]2[n]1[Ir-3]12([S]3)([c]3ccc4ccccc4c3-c3sc4ccccc4[n+]31)[c]1ccc3ccccc3c1-c1sc3ccccc3[n+]12 |  |  | baseline: IC50 dark over IC50 light | phototoxicity index | > 5000
Cc1cc(/C=C2\CN(C(C)C)C/C(=C\c3cc(C)c(O)c(C)c3)C2=O)cc(C)c1O | wound healing | concentration not given, 24 h, serum-free |  | migration rate | 28.5 ± 1.92%
O=c1c(/C=N/NC(=S)N/N=C/c2ccccc2O)coc2ccccc12 | DCFDA flow cytometry | 1 µM, 24 h | baseline: control | intracellular H2O2 level | 60 to 70%
COc1ccc(CCC(=O)Nc2nc3ccc(Cl)cc3s2)cc1OC | shotgun lipidomics | 10 µM, 18 h | baseline: DMSO | cholesteryl ester reduction | ~40%
C[C@H]1O[C@@H]2C3=C(O[C@]2(C)[C@@]1(O)C=O)C(=O)c1c(O)cccc1C3=O | cell growth or viability, MTT | 48 h |  | EC50 | 7.27 µg/mL (≈ 22 µM)
